Measurements gathered from unrelated publications.
± marks the error that the study gave.
CYP2C9: Cytochrome P450 2C9 (CYP2C9, Homo sapiens, UniProt P11712)
UniProt P11712, sequence (whole entry, looked up): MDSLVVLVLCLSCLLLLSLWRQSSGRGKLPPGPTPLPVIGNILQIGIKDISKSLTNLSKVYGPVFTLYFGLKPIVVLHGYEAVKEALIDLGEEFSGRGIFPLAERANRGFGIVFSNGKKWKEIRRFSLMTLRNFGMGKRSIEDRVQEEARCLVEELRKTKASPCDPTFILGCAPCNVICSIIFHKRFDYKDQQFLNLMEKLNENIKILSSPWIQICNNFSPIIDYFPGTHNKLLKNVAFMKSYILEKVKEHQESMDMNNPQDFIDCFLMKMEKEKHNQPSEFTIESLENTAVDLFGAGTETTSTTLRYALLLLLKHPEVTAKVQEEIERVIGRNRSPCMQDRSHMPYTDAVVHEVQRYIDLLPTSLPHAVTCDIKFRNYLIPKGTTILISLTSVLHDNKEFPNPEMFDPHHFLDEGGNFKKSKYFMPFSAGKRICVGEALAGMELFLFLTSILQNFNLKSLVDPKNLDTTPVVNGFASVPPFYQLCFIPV
SLCO1B3 M233I/S112A: Solute carrier organic anion transporter family member 1B3 (SLCO1B3, Homo sapiens, UniProt Q9NPD5, M233I/S112A)
UniProt Q9NPD5, sequence (whole entry, unmodified, looked up): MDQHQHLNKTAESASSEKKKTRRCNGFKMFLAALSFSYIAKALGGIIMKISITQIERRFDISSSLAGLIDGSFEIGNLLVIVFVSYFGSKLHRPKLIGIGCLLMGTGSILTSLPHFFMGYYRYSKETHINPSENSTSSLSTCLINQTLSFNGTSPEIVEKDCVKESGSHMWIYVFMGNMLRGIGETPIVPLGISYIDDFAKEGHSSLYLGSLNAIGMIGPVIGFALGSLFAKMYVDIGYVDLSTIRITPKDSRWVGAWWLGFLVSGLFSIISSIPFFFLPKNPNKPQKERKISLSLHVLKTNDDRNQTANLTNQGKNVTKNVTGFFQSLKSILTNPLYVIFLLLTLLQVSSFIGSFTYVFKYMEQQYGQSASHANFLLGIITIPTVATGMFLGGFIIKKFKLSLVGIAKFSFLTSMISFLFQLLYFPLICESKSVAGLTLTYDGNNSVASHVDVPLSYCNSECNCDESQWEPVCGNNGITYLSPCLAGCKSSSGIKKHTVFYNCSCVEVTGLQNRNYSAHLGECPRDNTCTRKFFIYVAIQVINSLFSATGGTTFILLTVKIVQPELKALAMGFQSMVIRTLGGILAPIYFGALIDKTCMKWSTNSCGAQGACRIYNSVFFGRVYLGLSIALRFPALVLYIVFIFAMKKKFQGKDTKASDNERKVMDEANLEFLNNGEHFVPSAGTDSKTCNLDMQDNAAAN
UniProt Q12809, sequence (whole entry, looked up): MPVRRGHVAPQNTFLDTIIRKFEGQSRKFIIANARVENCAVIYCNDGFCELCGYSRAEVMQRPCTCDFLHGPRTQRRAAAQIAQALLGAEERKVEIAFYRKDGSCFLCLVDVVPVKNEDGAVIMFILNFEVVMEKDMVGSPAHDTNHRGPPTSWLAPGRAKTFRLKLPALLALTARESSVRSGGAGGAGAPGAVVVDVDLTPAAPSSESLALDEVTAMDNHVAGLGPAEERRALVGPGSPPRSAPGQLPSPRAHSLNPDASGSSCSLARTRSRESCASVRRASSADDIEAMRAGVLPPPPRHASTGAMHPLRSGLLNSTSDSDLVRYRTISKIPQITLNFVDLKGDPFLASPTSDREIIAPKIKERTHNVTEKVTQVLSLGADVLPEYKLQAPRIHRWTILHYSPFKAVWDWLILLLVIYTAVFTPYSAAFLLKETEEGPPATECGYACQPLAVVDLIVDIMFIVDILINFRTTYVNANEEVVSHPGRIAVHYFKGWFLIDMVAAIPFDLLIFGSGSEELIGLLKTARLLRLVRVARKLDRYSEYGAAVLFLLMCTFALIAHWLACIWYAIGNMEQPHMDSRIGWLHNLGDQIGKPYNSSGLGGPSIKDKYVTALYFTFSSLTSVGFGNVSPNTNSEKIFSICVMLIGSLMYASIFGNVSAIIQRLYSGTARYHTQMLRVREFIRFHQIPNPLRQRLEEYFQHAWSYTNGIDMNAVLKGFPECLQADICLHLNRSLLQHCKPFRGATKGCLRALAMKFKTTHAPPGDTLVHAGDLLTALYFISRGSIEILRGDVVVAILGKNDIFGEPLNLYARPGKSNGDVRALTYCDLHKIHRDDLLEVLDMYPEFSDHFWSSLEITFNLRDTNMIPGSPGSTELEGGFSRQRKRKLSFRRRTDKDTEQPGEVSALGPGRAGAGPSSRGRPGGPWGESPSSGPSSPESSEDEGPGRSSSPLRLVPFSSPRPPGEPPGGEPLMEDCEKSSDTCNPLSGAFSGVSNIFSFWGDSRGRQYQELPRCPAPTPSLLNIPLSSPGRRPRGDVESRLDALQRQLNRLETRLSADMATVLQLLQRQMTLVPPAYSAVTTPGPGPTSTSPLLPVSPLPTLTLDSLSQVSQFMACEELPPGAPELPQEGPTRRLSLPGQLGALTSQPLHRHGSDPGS
UniProt P08684, sequence (whole entry, looked up): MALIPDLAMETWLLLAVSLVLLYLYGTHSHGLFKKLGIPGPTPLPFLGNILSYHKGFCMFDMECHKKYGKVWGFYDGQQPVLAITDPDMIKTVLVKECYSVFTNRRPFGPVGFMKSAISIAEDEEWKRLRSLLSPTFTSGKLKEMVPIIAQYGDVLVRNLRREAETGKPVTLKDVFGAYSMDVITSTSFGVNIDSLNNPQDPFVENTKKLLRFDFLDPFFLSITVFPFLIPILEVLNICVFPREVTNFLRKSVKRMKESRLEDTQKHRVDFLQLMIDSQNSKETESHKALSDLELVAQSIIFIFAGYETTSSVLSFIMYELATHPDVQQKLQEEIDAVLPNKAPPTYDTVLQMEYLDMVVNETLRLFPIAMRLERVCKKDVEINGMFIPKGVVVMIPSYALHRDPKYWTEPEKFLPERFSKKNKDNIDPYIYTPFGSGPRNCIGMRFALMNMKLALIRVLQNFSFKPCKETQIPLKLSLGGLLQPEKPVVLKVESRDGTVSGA
UniProt P27338, sequence (whole entry, looked up): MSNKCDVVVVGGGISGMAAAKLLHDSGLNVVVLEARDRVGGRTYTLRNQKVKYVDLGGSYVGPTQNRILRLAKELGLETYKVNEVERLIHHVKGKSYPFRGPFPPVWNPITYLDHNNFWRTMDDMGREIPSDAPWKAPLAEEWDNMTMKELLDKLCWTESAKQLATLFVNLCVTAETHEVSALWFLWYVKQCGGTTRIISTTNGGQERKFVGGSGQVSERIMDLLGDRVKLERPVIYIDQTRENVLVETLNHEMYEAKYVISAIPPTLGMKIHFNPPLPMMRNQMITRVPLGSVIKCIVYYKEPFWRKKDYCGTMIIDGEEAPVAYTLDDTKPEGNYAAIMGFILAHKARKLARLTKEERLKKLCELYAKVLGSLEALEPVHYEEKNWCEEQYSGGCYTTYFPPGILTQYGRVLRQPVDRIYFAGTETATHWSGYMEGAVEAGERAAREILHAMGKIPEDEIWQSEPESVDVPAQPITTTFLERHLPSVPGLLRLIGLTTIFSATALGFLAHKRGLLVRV

| SMILES | target or system | assay | test system | conditions | how to read | measurement | value |
| --- | --- | --- | --- | --- | --- | --- | --- |
| Cn1cc(-c2ccc(-c3cncc(Cl)c3N3CCC4(CCNC4=O)CC3)cc2)cn1 | COLO 205 | gene expression, microarray, measured: PRKCE mRNA |  | concentration not given, 6 h | baseline: untreated cells | log2 fold change | 2.27 |
| c1cncc(-c2cccc(Nc3nccc(NC4CCCCC4)n3)c2)c1 | P-glycoprotein (human MDR1) |  | MDR1-MDCKII | 10 µM, 1 h, pH 7.4 |  | Papp (A-B) | 10.4 ± 4.92 ×10⁻⁶ cm/s |
| CCc1cc(/C(C)=N/OCc2ccc(C3CCCCC3)c(C(F)(F)F)c2)ccc1CN1CC(C(=O)O)C1 | CYP2C9 | population PK | human, CYP2C9*2/*3, plasma |  |  | CYP2C9-mediated clearance | 1.07 L/h |
| CC(C)c1nc(N(C)S(C)(=O)=O)nc(-c2ccc(F)cc2)c1/C=C/[C@@H](O)C[C@@H](O)CC(=O)O | Solute carrier organic anion transporter family member 1B3 (SLCO1B3, Homo sapiens, UniProt Q9NPD5, M233I) | uptake, substrate | HEK293-A stably expressing SLCO1B3 | 2 min |  | Vmax | 412 ± 119 pmol/mg protein/min |
| CC(C)Nc1ccnc(Nc2cccc(-c3ccccc3)c2)n1 | P-glycoprotein (human MDR1) |  | MDR1-MDCKII | 10 µM, 1 h, pH 7.4 | baseline: B-A over A-B | efflux ratio | 1.43 |
| O=C(O)[C@@H]1CCCCN1 |  | binding, MIDAS equilibrium dialysis LC-MS | A2AR-BRIL thermostabilized | concentration not given | baseline: no-protein control | log2 fold change | -0.131 |
| CNC(=O)c1cc(Oc2ccc(NC(=O)Nc3ccc(Cl)c(C(F)(F)F)c3)cc2)ccn1 | SLCO1B3 M233I/S112A | substrate, uptake | HEK293-A stably expressing SLCO1B3 | 2 min |  | Km | 15.6 µM |
| NCc1cc2c(cc1F)C(=O)N(C1CCC(=O)NC1=O)C2 (stereo not drawn) | Amine oxidase [flavin-containing] B (MAOB, Homo sapiens, UniProt P27338) | substrate, LC-MS/MS | recombinant enzyme | 10 µM, 8 h, pH 7.4 |  | concentration | 8.2 µM |
| Cc1oc2ccccc2c1Cc1cc(I)c(OCC(=O)O)c(I)c1 | Voltage-gated inwardly rectifying potassium channel KCNH2 (KCNH2, Homo sapiens, UniProt Q12809) | potassium current, inhibitor, patch clamp | SH-SY5Y (endogenous) | 10 µM, at +50 mV |  | inhibition | 23% |
| CC[C@H]1[C@@H](O)[C@@H]2[C@H](CC[C@]3(C)[C@@H]([C@H](C)CCNC(=O)NS(=O)(=O)c4ccc(C(C)(C)C)cc4)CC[C@@H]23)[C@@]2(C)CC[C@@H](O)C[C@@H]12 | Cytochrome P450 3A4 (CYP3A4, Homo sapiens, UniProt P08684) | substrate | human, plasma | 10 mg, alone, study day 1 |  | AUC(0-inf) mean | 394 ng·h/mL |
| CC(C)Nc1ccnc(Nc2cccc(-c3ccccn3)c2)n1 | P-glycoprotein (human MDR1) |  | MDR1-MDCKII | 10 µM, 1 h, pH 7.4 |  | Papp (B-A) | 1.03 ± 0.707 ×10⁻⁶ cm/s |
| CC(C)n1c(/C=C/C(O)CC(O)CC(=O)O)c(-c2ccc(F)cc2)c2ccccc21 (stereo not drawn) | SLCO1B3 M233I/S112A | substrate, uptake | HEK293-A stably expressing SLCO1B3 | 2 min |  | Km | 4.14 µM |
| CC(C)Nc1ccnc(Nc2cccc(C(C)(C)C)c2)n1 | P-glycoprotein (human MDR1) |  | MDR1-MDCKII | 10 µM, 1 h, pH 7.4 |  | Papp (B-A) | 1.57 ± 0.68 ×10⁻⁶ cm/s |
| N#C[C@H](C[C@@H]1CCCNC1=O)NC(=O)[C@H](CC1CC1)NC(=O)c1cc2cccc(Cl)c2[nH]1 | CYP2C9 | NADPH metabolic stability |  | 2 µM, pH 7.4, 37 °C, 100 pmol/mL enzyme |  | half-life | 1.85 h |
| Nc1nc2c(ncn2[C@H]2C[C@H](O)[C@@H](COP(=O)(O)O)O2)c(=O)[nH]1 |  | binding, MIDAS equilibrium dialysis LC-MS | A2AR-BRIL thermostabilized | concentration not given | baseline: no-protein control | log2 fold change | -0.174 |
